Published values from different studies.
Every numbered part comes from another study and shows a few of its results, in no order. Values joined by “and” are separate records of one study, mostly repeats; a detail may differ.
Sequence of UniProt P49137 (whole entry, looked up): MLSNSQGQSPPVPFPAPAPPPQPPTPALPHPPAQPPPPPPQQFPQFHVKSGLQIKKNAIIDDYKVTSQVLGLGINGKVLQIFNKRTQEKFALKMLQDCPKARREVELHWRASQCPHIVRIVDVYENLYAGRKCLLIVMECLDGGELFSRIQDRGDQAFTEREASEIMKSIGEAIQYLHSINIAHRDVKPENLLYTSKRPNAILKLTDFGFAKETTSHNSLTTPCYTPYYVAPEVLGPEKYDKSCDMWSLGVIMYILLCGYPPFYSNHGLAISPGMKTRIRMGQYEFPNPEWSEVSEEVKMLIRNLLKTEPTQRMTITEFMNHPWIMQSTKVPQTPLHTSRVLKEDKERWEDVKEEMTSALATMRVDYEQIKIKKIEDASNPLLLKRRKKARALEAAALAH
Sequence of UniProt Q96LA9 (whole entry, looked up): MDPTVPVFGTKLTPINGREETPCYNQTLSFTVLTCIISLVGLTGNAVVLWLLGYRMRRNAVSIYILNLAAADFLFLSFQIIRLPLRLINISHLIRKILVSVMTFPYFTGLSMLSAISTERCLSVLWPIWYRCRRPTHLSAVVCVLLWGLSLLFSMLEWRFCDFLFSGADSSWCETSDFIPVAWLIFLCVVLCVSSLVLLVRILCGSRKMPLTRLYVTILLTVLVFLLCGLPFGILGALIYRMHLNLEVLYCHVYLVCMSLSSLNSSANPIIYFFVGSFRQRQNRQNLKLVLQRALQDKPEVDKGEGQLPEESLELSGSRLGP
Sequence of UniProt Q16584 (whole entry, looked up): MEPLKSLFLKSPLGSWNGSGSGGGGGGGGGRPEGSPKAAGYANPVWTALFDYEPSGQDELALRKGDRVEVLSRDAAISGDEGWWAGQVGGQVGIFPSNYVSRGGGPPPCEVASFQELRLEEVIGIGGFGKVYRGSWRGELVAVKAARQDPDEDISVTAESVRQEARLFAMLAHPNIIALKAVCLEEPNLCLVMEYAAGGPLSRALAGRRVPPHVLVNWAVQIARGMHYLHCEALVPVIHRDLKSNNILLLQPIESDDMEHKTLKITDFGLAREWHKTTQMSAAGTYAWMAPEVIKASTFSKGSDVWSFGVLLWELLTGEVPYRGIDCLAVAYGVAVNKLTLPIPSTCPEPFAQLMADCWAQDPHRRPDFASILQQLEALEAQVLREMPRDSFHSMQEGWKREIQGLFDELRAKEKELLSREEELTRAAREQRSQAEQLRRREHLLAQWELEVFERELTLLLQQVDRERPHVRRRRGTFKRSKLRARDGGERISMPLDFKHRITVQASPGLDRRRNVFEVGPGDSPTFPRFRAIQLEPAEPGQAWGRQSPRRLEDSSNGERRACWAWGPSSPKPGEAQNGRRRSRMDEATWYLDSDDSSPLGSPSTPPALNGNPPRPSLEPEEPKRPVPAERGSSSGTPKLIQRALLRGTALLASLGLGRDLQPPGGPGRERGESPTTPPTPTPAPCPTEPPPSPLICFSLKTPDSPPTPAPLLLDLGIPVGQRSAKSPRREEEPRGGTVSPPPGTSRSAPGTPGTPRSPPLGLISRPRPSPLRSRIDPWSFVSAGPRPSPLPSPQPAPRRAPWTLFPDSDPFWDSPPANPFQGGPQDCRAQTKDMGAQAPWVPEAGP
Sequence of UniProt Q9BZJ7 (whole entry, looked up): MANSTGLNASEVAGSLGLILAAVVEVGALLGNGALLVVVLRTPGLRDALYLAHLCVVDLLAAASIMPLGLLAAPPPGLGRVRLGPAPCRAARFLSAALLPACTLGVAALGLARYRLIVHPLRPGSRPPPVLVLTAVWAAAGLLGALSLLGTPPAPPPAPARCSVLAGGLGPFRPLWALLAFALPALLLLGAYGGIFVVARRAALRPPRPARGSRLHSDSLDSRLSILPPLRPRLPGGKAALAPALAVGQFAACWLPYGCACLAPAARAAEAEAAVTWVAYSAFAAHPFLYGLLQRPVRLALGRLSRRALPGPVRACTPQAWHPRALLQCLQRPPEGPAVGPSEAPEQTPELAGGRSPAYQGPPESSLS
Sequence of UniProt O14730 (whole entry, looked up): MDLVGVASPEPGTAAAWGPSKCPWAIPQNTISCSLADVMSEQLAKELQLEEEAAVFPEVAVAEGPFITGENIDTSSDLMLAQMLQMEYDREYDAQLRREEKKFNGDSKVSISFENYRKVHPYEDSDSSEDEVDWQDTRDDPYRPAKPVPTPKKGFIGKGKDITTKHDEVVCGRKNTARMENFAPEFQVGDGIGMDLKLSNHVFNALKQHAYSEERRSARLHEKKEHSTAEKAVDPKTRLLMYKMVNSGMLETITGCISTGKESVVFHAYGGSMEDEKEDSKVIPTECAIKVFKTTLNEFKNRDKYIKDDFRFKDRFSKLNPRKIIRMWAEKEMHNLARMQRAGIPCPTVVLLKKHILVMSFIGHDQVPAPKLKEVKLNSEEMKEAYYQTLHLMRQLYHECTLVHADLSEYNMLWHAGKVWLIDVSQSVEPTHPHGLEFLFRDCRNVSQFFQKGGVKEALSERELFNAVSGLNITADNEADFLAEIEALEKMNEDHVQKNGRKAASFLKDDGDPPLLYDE
Sequence of UniProt Q16538 (whole entry, looked up): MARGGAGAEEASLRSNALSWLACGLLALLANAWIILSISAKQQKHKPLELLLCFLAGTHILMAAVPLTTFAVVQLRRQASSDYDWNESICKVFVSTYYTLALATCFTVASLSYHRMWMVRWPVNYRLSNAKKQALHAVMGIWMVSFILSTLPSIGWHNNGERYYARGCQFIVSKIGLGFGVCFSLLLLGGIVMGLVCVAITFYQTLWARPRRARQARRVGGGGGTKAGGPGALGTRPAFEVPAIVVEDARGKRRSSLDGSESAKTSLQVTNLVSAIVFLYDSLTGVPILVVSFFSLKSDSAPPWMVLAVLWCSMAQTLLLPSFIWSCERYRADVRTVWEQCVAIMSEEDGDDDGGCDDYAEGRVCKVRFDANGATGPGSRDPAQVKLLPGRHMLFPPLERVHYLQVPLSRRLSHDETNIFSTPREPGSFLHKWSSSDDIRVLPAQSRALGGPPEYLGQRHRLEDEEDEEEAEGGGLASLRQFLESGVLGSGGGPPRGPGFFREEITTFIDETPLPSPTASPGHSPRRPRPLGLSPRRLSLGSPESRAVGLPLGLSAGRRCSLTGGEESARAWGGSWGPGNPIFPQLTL

Set 1 — effect on: cell-free assay; method: competition with immobilised ligand; tested at: 1 µM; measurement: remaining binding
SMILES: O=C(O)[C@@H]1[C@@H](Cn2nnc3ccccc3c2=O)CC[C@H]1C(=O)c1ccc(OCCC2CCOCC2)cc1
target = DYRK1B (Homo sapiens, UniProt Q9Y463); result = 86%
target = RIOK3 (Homo sapiens, UniProt O14730); result = 100%
target = LIM domain kinase 2 (LIMK2, Homo sapiens, UniProt P53671); result = 100%
target = MAPKAPK2 (Homo sapiens, UniProt P49137); result = 100%
target = MAP3K11 (Homo sapiens, UniProt Q16584); result = 92%
target = RET (Homo sapiens, UniProt P07949); result = 100%

Set 2 — effect on: enzyme activity; action: inhibitor; tested at: 0.5 µM; relative to: control; measurement: remaining activity
Target: Homeodomain-interacting protein kinase 3 (HIPK3, Homo sapiens, UniProt Q9H422)
Sequence of UniProt Q9H422 (whole entry, looked up): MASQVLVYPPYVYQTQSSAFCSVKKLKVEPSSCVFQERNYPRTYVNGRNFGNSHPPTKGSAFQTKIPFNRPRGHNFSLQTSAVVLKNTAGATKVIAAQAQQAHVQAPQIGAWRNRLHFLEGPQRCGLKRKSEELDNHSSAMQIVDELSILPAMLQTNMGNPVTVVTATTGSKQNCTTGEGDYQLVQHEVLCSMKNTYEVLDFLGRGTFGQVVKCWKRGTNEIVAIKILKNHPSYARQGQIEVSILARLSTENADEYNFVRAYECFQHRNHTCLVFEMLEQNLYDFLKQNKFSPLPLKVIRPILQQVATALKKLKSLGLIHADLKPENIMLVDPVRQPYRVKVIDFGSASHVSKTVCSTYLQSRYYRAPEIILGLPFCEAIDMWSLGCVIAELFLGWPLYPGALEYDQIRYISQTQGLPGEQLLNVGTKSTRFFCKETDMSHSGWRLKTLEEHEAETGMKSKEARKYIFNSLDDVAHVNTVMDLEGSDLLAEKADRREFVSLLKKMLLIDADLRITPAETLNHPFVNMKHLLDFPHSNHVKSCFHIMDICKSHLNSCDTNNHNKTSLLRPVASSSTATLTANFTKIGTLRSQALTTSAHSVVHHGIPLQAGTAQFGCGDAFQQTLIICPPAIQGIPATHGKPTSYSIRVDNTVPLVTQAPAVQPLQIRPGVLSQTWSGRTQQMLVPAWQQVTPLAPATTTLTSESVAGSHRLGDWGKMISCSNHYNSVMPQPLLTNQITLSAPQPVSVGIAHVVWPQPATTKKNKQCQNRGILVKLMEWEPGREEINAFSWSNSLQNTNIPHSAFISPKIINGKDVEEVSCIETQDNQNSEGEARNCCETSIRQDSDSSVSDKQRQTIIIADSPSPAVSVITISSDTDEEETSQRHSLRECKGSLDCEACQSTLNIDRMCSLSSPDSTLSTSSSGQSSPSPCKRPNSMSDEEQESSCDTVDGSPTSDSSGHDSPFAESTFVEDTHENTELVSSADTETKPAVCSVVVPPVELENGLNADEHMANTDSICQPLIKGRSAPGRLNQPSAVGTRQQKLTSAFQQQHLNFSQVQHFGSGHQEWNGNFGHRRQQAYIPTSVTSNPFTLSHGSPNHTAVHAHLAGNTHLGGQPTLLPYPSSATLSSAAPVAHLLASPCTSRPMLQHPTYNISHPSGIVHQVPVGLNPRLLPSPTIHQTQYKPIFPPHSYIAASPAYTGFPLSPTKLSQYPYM
SMILES = COc1ccc(COc2ccc(Cc3cnc(N)nc3N)cc2OC)cc1; result = 102%
SMILES = O=C(c1ccccc1)c1ccc(N2CCOCC2)cc1O; result = 98.1%
SMILES = N#C/C(=C(/N)SC1C=CC=CC1)c1cccc(C(O)c2ccncc2)c1 (stereo not drawn); result = 122%
SMILES = c1ccc2c(-c3ccncc3)c[nH]c2c1; result = 107%
SMILES = CC(C)N(CCC(=O)c1ccc2ccccc2c1)Cc1ccccc1; result = 115%
SMILES = O=C1NC(=O)/C(=C/c2ccc3c(c2)OC(F)(F)O3)S1; result = 90.1%
SMILES = CN1CCN(c2ccc3nc(-c4c(N)c5c(F)cccc5[nH]c4=O)[nH]c3c2)CC1; result = 95.6%
SMILES = O=C1Nc2ccccc2/C1=C\c1c(Cl)[nH]c2ccccc12; result = 100%
SMILES = O=C1Cc2c([nH]c3ccc(Br)cc23)-c2ccccc2N1; result = 109%
SMILES = O=C(c1cc2cc(O)ccc2[nH]1)c1cc2cc(O)ccc2[nH]1; result = 97.3%
SMILES = CCCCc1c(-c2ccc(OC)cc2)[nH]c2nccnc12; result = 99.9%
SMILES = N#Cc1cnc2cnc(NCc3cccnc3)cc2c1Nc1ccc(F)c(Cl)c1; result = 96.5%
SMILES = NC(=O)c1ccc(-c2nc(-c3ccc4c(c3)OCCO4)c(-c3ccccn3)[nH]2)cc1; result = 96.5%
SMILES = CC(C)n1cnc2c(Nc3cccc(Cl)c3)nc(NCCO)nc21; result = 99.9%
SMILES = CCCCc1c(-c2ccc(O)cc2)[nH]c2nccnc12; result = 100%
SMILES = O=C1Nc2ccc(Br)cc2/C1=C/c1cc2c([nH]1)CCCC2; result = 96.7%
SMILES = CNc1cc2c(Nc3cccc(Br)c3)ncnc2cn1; result = 94.1%
SMILES = CCCNC(=O)Nc1ccc(Oc2ncnc3cc(OC)c(OC)cc23)cc1Cl; result = 96.2%
SMILES = COc1cccc(-c2cc(=O)c3ccccc3o2)c1N; result = 101%
SMILES = O=C1NC(=O)c2c1c1c3ccccc3[nH]c1c1[nH]c3cc(Br)ccc3c21; result = 93.3%
SMILES = C[C@@H](N)[C@H]1CC[C@H](C(=O)Nc2ccncc2)CC1; result = 79.1%
SMILES = c1ccc(-c2n[nH]c3c2oc2ccccc23)cc1; result = 80.7%
SMILES = COc1cc2c(N3CCN(C(=O)Nc4ccc(OC(C)C)cc4)CC3)ncnc2cc1OCCCN1CCCCC1; result = 101%
SMILES = O=Nc1c(-c2c(O)[nH]c3cc(Br)ccc23)[nH]c2ccccc12; result = 64.8%
SMILES = COc1ccc2c(c1)c(C1=C(c3c[nH]c4ccccc34)C(=O)NC1=O)cn2CCCN(C)C; result = 74.1%

Set 3 — SMILES: CCN(c1nc(N)c(C(=O)N=C(N)N)nc1Cl)C(C)C; effect on: β-arrestin recruitment; action: agonist; method: PRESTO-Tango; tested at: 10 µM; relative to: untreated; measurement: fold over basal
target = 12-(S)-hydroxy-5,8,10,14-eicosatetraenoic acid receptor (GPR31, Homo sapiens, UniProt O00270); result = 0.99
target = Probable G-protein coupled receptor 160 (GPR160, Homo sapiens, UniProt Q9UJ42); result = 0.83
target = G-protein coupled receptor 62 (GPR62, Homo sapiens, UniProt Q9BZJ7); result = 1.19
target = CCR3 (Homo sapiens, UniProt P51677); result = 1.07
target = BRS3 (Homo sapiens, UniProt P32247); result = 3.36
target = Probable G-protein coupled receptor 162 (GPR162, Homo sapiens, UniProt Q16538); result = 1.14
target = Mas-related G-protein coupled receptor member X4 (Homo sapiens, UniProt Q96LA9); result = 1.92
target = G-protein coupled receptor 61 (GPR61, Homo sapiens, UniProt Q9BZJ8); result = 0.73
target = GRM2 (Homo sapiens, UniProt Q14416); result = 1.13 fold
target = FPR2 (Homo sapiens, UniProt P25090); result = 1.02 fold

Set 4 — action: inhibitor; tested at: 10 µM; relative to: control; measurement: remaining activity
Target: Diamine acetyltransferase 1 (Homo sapiens, UniProt P21673)
Residues (P21673 1-171): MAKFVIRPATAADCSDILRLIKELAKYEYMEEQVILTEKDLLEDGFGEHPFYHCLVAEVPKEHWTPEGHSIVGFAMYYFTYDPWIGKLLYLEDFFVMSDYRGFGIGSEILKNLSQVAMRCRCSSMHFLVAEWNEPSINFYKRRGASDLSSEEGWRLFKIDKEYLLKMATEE
SMILES = C[C@H](CC[C@@H](O[C@@H]1O[C@H](CO)[C@@H](O)[C@H](O)[C@H]1O[C@@H]1O[C@H](CO)[C@@H](O)[C@H](O)[C@H]1O)C(C)(C)O)[C@H]1CC[C@@]2(C)[C@H]3CC=C4[C@@H](CC[C@H](O[C@@H]5O[C@H](CO[C@@H]6O[C@H](CO)[C@@H](O)[C@H](O)[C@H]6O)[C@@H](O)[C@H](O)[C@H]5O)C4(C)C)[C@]3(C)[C@H](O)C[C@]12C; result = 101%
SMILES = COc1ccc([C@@H]2CC(=O)c3c(O)cc(O[C@@H]4O[C@H](CO[C@@H]5O[C@@H](C)[C@H](O)[C@@H](O)[C@H]5O)[C@@H](O)[C@H](O)[C@H]4O)cc3O2)cc1O; result = 102%
SMILES = COc1ccc2c(c1OC)O[C@H]1c3ccc(O)cc3OC[C@@H]21; result = 102%
SMILES = O=C(O)c1ccc(O)c(O)c1; result = 73.1%
SMILES = C=CC(C)(CCC=C(C)C)OC(C)=O (stereo not drawn); result = 111%
SMILES = N[C@@H](Cc1ccc(O)c(O)c1)C(=O)O; result = 82.4%

Set 5 — organism: Sarcocystis neurona; effect on: parasite growth; tested at: 10 µM; measurement: inhibition
Structure (SMILES) = CCc1cccc2c3c([nH]c12)C(CC)(CC(=O)O)OCC3 (stereo not drawn); result = -32.4%
Structure (SMILES) = Br.O=C1CC2(CCCC2)CC(=O)N1CCNCC1COc2ccccc2O1 (stereo not drawn); result = 28.4%
Structure (SMILES) = CN1CCN(C2=Nc3cc(Cl)ccc3Nc3ccccc32)CC1; result = -29.7%
Structure (SMILES) = Cc1cn([C@H]2C=C[C@@H](CO)O2)c(=O)[nH]c1=O; result = -22% and -28.6%
Structure (SMILES) = COc1cc(NC(C)CCCN)c2ncccc2c1 (stereo not drawn); result = 98.7%
Structure (SMILES) = CC[C@]1(O)C[C@@H]2CN(CCc3c([nH]c4ccccc34)[C@@](C(=O)OC)(c3cc4c(cc3OC)N(C)[C@H]3[C@@](O)(C(N)=O)[C@H](O)[C@]5(CC)C=CCN6CC[C@]43[C@@H]65)C2)C1; result = 9.5%
Structure (SMILES) = Nc1ccn([C@H]2CC[C@@H](CO)O2)c(=O)n1; result = -21.3%

A few entries again (set 4):
SMILES = C[C@H](CC[C@@H](O[C@@H]1O[C@H](CO)[C@@H](O)[C@H](O)[C@H]1O[C@@H]1O[C@H](CO)[C@@H](O)[C@H](O)[C@H]1O)C(C)(C)O)[C@H]1CC[C@@]2(C)[C@H]3CC=C4[C@@H](CC[C@H](O[C@@H]5O[C@H](CO[C@@H]6O[C@H](CO)[C@@H](O)[C@H](O)[C@H]6O)[C@@H](O)[C@H](O)[C@H]5O)C4(C)C)[C@]3(C)[C@H](O)C[C@]12C; result = 101%
SMILES = COc1ccc([C@@H]2CC(=O)c3c(O)cc(O[C@@H]4O[C@H](CO[C@@H]5O[C@@H](C)[C@H](O)[C@@H](O)[C@H]5O)[C@@H](O)[C@H](O)[C@H]4O)cc3O2)cc1O; result = 102%
SMILES = COc1ccc2c(c1OC)O[C@H]1c3ccc(O)cc3OC[C@@H]21; result = 102%
SMILES = O=C(O)c1ccc(O)c(O)c1; result = 73.1%
SMILES = C=CC(C)(CCC=C(C)C)OC(C)=O (stereo not drawn); result = 111%
SMILES = N[C@@H](Cc1ccc(O)c(O)c1)C(=O)O; result = 82.4%
